Experimental data gathered from unrelated publications.
Every numbered part comes from another study and shows a few of its results, in no order. Changes are numbered by the printed parent chain.

Set 1 — technique: DHFR PCA, deep sequencing; medium: yeast; together with: (+)-ABA 0 µM; relative to: wild-type fitted maximum; reading: higher = stronger binding
Target: ABI1, truncated, D143A, DHFR fusion (Arabidopsis thaliana)
Setting: methotrexate growth selection, single substitutions
Starting sequence: PYL1, truncated, DHFR fusion (Arabidopsis thaliana); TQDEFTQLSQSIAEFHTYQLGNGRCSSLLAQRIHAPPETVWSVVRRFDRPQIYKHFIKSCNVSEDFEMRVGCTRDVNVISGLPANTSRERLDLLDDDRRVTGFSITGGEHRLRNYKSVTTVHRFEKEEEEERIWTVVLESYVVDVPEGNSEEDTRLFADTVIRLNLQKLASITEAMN; partner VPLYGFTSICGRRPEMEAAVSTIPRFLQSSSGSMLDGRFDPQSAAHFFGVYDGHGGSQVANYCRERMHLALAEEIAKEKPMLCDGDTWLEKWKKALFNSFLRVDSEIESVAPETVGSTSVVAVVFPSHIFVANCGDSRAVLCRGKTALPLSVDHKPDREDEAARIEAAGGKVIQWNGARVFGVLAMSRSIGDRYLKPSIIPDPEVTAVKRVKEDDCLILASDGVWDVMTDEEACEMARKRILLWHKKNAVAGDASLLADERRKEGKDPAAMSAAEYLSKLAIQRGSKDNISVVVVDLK
Change | relative binding score [%]
S117I | -7.81
L91R | 3.07
V70F | -2.95
A84T | 23.9
D75R | 6.04
V137I | -2.85

Set 2 — target: CCNE1, cyclin fold, Cln2 fusion (human); technique: yeast growth competition, sequencing; medium: yeast; setting: weak parent motif; relative to: not given; reading: higher = stronger binding
Starting sequence: SLBP docking peptide (human); ARYKRKLLINDFG
Change | normalised enrichment score
ARKKRKLLINDFG [Y3K] | -0.363
MRYKRKLLINDFG [A1M] | 1.09
ARMKRKLLINDFG [Y3M] | 0.978
ARYKRKLLINDIG [F12I] | 0.295
ARYKRRLLINDFG [K6R] | 0.244
ARYKRKLLINDLG [F12L] | 0.707
ARYKRKLLINDCG [F12C] | 0.459
ARYKRKLLKNDFG [I9K] | 2.31

Set 3 — technique: RNA Bind-n-Seq; form: RNA; medium: in vitro; concentration: 200 nM; setting: whole 134-nt RNA, ends assumed; together with: 150 mM KCl; relative to: input library; reading: higher = stronger binding
Target: Fragile X messenger ribonucleoprotein 1, C-terminal low-complexity region (Fmr1, Mus musculus, UniProt P35922)
Oligonucleotide | log2 enrichment
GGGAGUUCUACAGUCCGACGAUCAAGUCCUGUGCUACACAUCGUAUGUACCGAAUCAAAUUUAAACCCCCAAAUUUAAAAAAGUAUUAUGUUACGCCGUUCGGAUCUGCACUUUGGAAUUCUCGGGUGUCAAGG | 0.159
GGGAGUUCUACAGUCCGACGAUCCCUGUGCUACACAUCGUAUGUACCGAAUCGGUUUUUUUGGGUUUUUUUGGGUUUUUUUGGAAAGUAUUAUGUUACGCCGUUCGGAUCUGCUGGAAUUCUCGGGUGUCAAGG | -0.291
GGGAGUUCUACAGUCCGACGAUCUGUCAGGAUUAUGAAGAAGCUGUGCUCUUGCUGUUAGAAGGAGCUGCCUGGGAAGAAGCUUUGAGGCUGGUAAGAAUCUUGUAAAUCCUCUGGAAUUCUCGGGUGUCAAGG | -1.21
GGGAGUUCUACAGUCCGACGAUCUGUGCUACACAUCGUAUGUACCGAAUCGGGGAAAAAAAGGGGAAAAAAAGGGGAAAAAAAGGGAAAGUAUUAUGUUACGCCGUUCGGAUCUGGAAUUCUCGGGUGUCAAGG | -0.112
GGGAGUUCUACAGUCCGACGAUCGUCCUGUGCUACACAUCGUAUGUACCGAAUCGGGAGGGUUUUUUUGGGUUUUUUUGGGAAAGUAUUAUGUUACGCCGUUCGGAUCUGCACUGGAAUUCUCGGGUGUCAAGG | 0.0877
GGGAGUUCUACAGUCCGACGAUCCCUGUGCUACACAUCGUAUGUACCGAAUCGGGGAAAAAGGGGAAAAAAAGGGGUUUGGGGAAAGUAUUAUGUUACGCCGUUCGGAUCUGCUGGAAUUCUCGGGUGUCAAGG | 0.238
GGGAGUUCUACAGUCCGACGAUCAAGUCCUGUGCUACACAUCGUAUGUACCGAAUCGGGAAAGGGUUUUUGGGUUUGGGAAAGUAUUAUGUUACGCCGUUCGGAUCUGCACUUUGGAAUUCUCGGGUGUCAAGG | 0.619
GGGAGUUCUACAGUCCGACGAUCCACAGACAACACGCACCCACACAGACACAGAGGGAAGGGGUUGGGAUGGGGACAGGGUGCACAGCAAAACGGGGUAGGACCCCAGCCCCUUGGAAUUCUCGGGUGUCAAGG | 1.29
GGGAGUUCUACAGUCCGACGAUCUCCUGUGCUACACAUCGUAUGUACCGAAUCGGGUUUUUUUGGGUUUGGGUUUUUUUGGGAAAGUAUUAUGUUACGCCGUUCGGAUCUGCAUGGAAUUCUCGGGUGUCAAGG | 0.0511
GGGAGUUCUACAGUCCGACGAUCGUCCUGUGCUACACAUCGUAUGUACCGAAUCGGGAAAAAGGGAAAGGGUUUUUUUGGGAAAGUAUUAUGUUACGCCGUUCGGAUCUGCACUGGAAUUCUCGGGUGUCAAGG | -0.401

Single results of other studies
Substance | target | assay | system | setting | scale | endpoint | result
PhoQ, residues 284 288 289 292 302 303 AANNSF | PhoP, residues 12 14 15 18 19 LHSVW (Escherichia coli, UniProt P23836) | Sort-seq, measured: YFP reporter | E. coli | PhoQ-PhoP variant library, together with: 10 µM Mg2+ | relative to: high Mg2+ state, higher = stronger signaling | fold induction | 8.37

Some of these lines once more (set 2):
Change | normalised enrichment score
ARMKRKLLINDFG [Y3M] | 0.978
ARYKRKLLINDIG [F12I] | 0.295
